Measurements collected from several papers.
A part holds a random share of what one study measured. Changes are numbered by the printed parent chain.

Block 1
Target: Histone acetyltransferase KAT6A, winged helix 1, GST fusion (KAT6A, Homo sapiens, UniProt Q92794, residues 1-85)
Technique: protein binding microarray
Molecule type: double-stranded DNA, one strand shown
Matrix: in vitro
Tested at: not given
Setting: 8-mer, flanks averaged, mean of 2 arrays, mostly near background
Reference: not given
Direction: higher = stronger binding
Target sequence (chain): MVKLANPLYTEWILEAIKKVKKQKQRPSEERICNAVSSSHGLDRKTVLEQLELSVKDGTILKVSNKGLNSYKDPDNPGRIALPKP
Oligonucleotide | E-score
CGCGGAGA | 0.295
CAGCACTC | -0.122
AGATGAAA | -0.193
CCGGCCCC | 0.249
GCATTACA | 0.0127
CAGCGTCG | 0.272
ATCCGACA | 0.041
AAGATACT | 0.0123
AGACCTTA | -0.0581
CTTGGGGA | -0.222
GCCGCAGC | 0.353
CGGCGTGA | 0.344
CACCTGTC | -0.0807
AGGCGGGC | 0.313
CGTACGCA | 0.342
AGCACCAC | -0.188
AGATCATC | -0.239
GCCACCCA | -0.121
AGGGGTTA | -0.133
CGCAAACC | 0.233
AAGGACCT | 0.122
GCGGTAGA | 0.129
CCCCAGAA | -0.217
GACGGTAA | 0.322
TCGGGTAA | 0.083

Block 2
Target: CCNA2, cyclin fold, Cln2 fusion (human)
Technique: yeast growth competition, sequencing
Matrix: yeast
Setting: strong parent motif
Reference: not given
Direction: higher = stronger binding
Starting sequence: E2F1 docking peptide (human); PPVKRRLDFETDH; partner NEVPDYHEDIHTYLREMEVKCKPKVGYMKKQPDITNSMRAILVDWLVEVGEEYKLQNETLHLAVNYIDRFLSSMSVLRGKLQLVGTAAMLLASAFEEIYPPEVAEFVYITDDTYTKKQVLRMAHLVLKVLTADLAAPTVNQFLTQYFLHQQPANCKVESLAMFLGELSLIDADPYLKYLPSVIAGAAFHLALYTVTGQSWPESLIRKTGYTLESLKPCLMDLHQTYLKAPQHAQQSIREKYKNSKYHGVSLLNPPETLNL
Variant | normalised enrichment score
D8T | 5.8
K4A | 4.9
D8S | 5.07
E10T | 5.91
V3K | 2.06
D8W | 6.66
L7S | -0.087
D12R | 6.44
V3I | 5.51
R5I | 3.41
D8I | 5.26
R6L | 4.07
K4H | 5.71
E10Q | 6.36
R5A | 1.94
F9M | 5.3
T11Q | 6.14
R6A | 5.46
R6W | 4.4
R5V | 3.54
T11P | 6.2
K4N | 5.12

Block 3
Target: RING finger protein unkempt homolog, zinc fingers 1-6, SBP tag (UNK, Homo sapiens, UniProt Q9C0B0, residues 30-357)
UniProt Q9C0B0, sequence (30-357, looked up): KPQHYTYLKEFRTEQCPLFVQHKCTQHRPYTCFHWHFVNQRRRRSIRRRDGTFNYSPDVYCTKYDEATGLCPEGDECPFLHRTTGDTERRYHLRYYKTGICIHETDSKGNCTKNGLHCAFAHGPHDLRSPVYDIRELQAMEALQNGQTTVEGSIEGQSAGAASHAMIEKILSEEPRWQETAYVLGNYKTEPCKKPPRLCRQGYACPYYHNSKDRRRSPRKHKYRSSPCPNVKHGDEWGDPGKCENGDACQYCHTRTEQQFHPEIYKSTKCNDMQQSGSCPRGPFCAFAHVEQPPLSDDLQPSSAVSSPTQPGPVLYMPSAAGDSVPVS
Technique: RNA Bind-n-Seq
Molecule type: RNA
Matrix: in vitro
Tested at: 100 nM
Setting: RNA with constant flanks, vertebrate orthologous sites, ends assumed
Reference: input RNA pool
Direction: higher = stronger binding
Oligonucleotide | bound/input enrichment [ratio]
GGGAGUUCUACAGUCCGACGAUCCUACUAUAAACAACUCAGGGCAGUAUUCUCGAUAUCCUUACAGUAACCUUAAUCAGGGAUUAGUUAAUAAUACAGGGAUGAAUCAGAAUUUAGGCCUUACAAAUAACACUCCGAUGAAUCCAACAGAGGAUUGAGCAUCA | 1.14
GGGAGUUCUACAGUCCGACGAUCAGCUUCUGGCGACAUUUGGCCUGGCCUUUCAGCCUAUGAUAACAGUCCAAGGUCACCCCAUAGUCCUUCCAUUGCCUCCCCACCUAGUCAGAGUUCAUCUUGCUCUGAUGCCCCUCUGCUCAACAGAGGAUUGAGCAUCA | 0.754
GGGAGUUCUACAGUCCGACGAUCCUUAAUUAGAGGGUAGUAAAUAUUUCAUAAAGAAGAGUCUUUAUAAUUUUGUUUGUCAUAUAGUAUUUUGGAAUUUGUAUAAUGAGGAUGUUUAGAAGCCAUAUCAAUGGCUUUUUUUAACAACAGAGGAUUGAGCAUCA | 0.393
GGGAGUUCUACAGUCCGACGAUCCAGCAGAUUCUCUCAUAGGGAGAGCUGCACACAUUGCUGUUCUUGAUUCAGAAAUAUUUUUAGAAAAAUUCUUUCUUGUUGCUGCCCUGAAAUAUUUUCAGUAGAGAAAAGCAUUGUCGGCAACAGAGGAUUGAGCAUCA | 0.363
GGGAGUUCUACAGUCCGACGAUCACAGCCCUUGUGAGAGGGAGUUUGGGGCAGCCCAGGGUGUGGCCCUCAGCUGUUUCGAUCCAGUUGUUUUUUUUUAAACUUACUGUAUUUAUUACGACGAUGAUGACUCCCCCGUGCACACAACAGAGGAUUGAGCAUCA | 0.235
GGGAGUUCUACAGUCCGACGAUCUUUUUUUUUUUGCACAUGACAGUGUUUGUAUUGAGGAUCUUCUGAAGAAGAGGGGUGCUGUGGCAGUGGCGCCUGGGUGCCUGGCCUCCAGUGUCCCACCCCCUUCACCACCCCACUUGGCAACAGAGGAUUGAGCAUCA | 0.308
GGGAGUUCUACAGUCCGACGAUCAAGUUAUUGCAAAAGAGCCAAGCAGUAGUAUUGUGGGGUUUUUUGUAAAUGUAAAAUACUUAGAUCCAGACUUUGUUUCCUUCUUCAAUUUUAAAAAUAAAAAAUACCUCAGUGCUAUGUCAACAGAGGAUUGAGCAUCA | 0.332
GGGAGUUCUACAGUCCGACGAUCUUUGUGGAGGGAGAAAGACAAGUUUCUUCUCUCUUUCAAGUAAAACUGAAAUAAUUUUCUUUUAUUUCUGUCUUGGAAAACAAAGAUGGCCUAUUCUCUUAACUGUGCUACAAUACCAUCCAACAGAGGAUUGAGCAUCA | 0.251

Block 4
Target: RNA binding protein fox-1 homolog 2, RRM domain, GST-SBP tag (RBFOX2, Homo sapiens, UniProt O43251-10, residues 100-194)
Technique: RNA Bind-n-Seq
Molecule type: RNA
Matrix: in vitro
Tested at: 365 nM
Setting: natural RNA segment, single round, ends assumed
Reference: no-protein control
Direction: higher = stronger binding
Construct (chain): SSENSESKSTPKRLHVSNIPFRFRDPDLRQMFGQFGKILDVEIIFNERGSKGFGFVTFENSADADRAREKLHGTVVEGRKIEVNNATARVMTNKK
Oligonucleotide | RBNS enrichment (R)
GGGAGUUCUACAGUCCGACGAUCGGCACUGGAAAGCCUCUGUCUUCCCAGCCCUUGCCUCUCCAGGAAACUCCACAGGCCUCCAGAGAAUACCAGUUUCUCAGCCCAAGGGGUCCAUCACUGAGAAGUGCCCAUGGAAUUCUCGGGUGCCAA | 0.222
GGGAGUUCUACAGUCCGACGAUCCCCGGCAUCCCUUAGCCUCUAUAGCAGUGUGCUCAAAAGCCCUGGCUCAACAAAGCACAUCUUCACCACGCUCCAUCCGGACAACUCCAGUCUUGCCAACAAGUGCCAAAUGGAAUUCUCGGGUGCCAA | 0.701
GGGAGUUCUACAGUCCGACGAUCUUUCUUCCUGUUGCUGGAUUCUCACCUCCAUGGGCCUGUCUCUUCUGCCUCUGCCUUCUGGACACCGUUUCCUCUCCGCUGCUUCAGAGAGCUUUGCCUCGCCUCCGCCUUGGAAUUCUCGGGUGCCAA | 0.314
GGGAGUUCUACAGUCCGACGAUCCCUGGCCCCUGGCCCCUGGCCCCUUGCCUGGCUGGCUUGACAGCCUGAGCACAAGAAGCAGUAAGUUGGCACCUUGCCACACUGUUGGUUGGGCCCAGGUGCUGCUCAGCUGGAAUUCUCGGGUGCCAA | 0.277
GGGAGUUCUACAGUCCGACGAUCCAUAUGUUGUGUUUGGUUCAAUUUUUUUUCCGUAAAUGUCUGCACUGAGGAUUUCUUUUUGGUUUGCCUUUUAUGUAAAUUUUUUACGUAGCUAUUUUUAUACACUGUAAUGGAAUUCUCGGGUGCCAA | 1.02
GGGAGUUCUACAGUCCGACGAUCAUAGUUAUGAAAUCUUAGCCACAAAAAAUAAAUCAGGUAAACAUUUUAACCUGUCGUUAAGUGUUGUAACUUCAAAAAACCAAAAUGCUUAUUUUAAUGUGAUUUUUCUAUGGAAUUCUCGGGUGCCAA | 0.774
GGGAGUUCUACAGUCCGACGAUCCAAGUUGGGCAGGAUAUGGCCUACUUCCAUAGGCUUUUCUUUUUUCAGGUUUGAUGUAAGCAUGGGCUUACAUCCCCCAGGUACAUACUUUUACUUAUUGUGGGAUAACCUGGAAUUCUCGGGUGCCAA | 0.261
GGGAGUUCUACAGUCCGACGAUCUGUAAAGUUAUUCUUGAAGUCAGAUUGAGGCUGGGAGACAGCCGUAGUAGAUGUUCUACUUUGUUCUGCUGUUCUCUAGAAAGAAUAUUUGGUUUUCCUGUAUAGGAAUGUGGAAUUCUCGGGUGCCAA | 0.317

Further values, each from its own experiment
Molecule | target | test | test system | setting | scale | measurement | value
PhoQ, residues 284 288 289 292 302 303 NLGVHL | PhoP, residues 12 14 15 18 19 SGWQI (Escherichia coli, UniProt P23836) | Sort-seq, item: YFP reporter | E. coli | PhoQ-PhoP variant library, with: 10 µM Mg2+ | reference: high Mg2+ state, higher = stronger signaling | fold induction | 10.6
